Experimental data pooled from the literature.
Every numbered part comes from another study and shows a few of its results, in no order.

Series 1
Target: Histone acetyltransferase KAT6A, winged helix 2, GST fusion (KAT6A, Homo sapiens, UniProt Q92794, residues 85-181)
Technique: protein binding microarray
Molecule type: double-stranded DNA, one strand shown
Sample: in vitro
Tested at: not given
Notes: 8-mer, flanks averaged, mean of 2 arrays, mostly near background
Baseline: not given
Direction: higher = stronger binding
Target sequence (chain): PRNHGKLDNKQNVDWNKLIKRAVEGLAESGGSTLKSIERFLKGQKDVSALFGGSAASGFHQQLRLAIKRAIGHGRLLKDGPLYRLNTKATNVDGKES
Sequence | E-score
GAGCATGA | -0.0703
ATAGCGAG | -0.0136
GACAGCTA | -0.101
CGTTCCAC | 0.00673
CCCGAACC | 0.15
ATTGGGCA | 0.096
AAATAGAG | 0.0695
ACAATCAC | -0.0358

Series 2
Molecule: PhoQ, residues 284 288 289 292 302 303 AQGLTV
Technique: Sort-seq
Refers to: YFP reporter
Sample: E. coli
Notes: PhoQ-PhoP variant library
Added: 10 µM Mg2+
Baseline: high Mg2+ state
Direction: higher = stronger signaling
target | fold induction
PhoP, residues 12 14 15 18 19 VHTVL (Escherichia coli, UniProt P23836) | 4.25
PhoP, residues 12 14 15 18 19 ICWRQ (Escherichia coli, UniProt P23836) | 3.31
PhoP, residues 12 14 15 18 19 TQCLL (Escherichia coli, UniProt P23836) | 1.65

Series 3
Target: Sal-like protein 4, full length isoform B (SALL4, Homo sapiens, UniProt Q9UJQ4-2, residues 1-616)
Technique: universal PBM
Molecule type: double-stranded DNA, one strand shown
Sample: in vitro
Tested at: not given
Notes: 8-mer, flanks averaged, mean of replicates
Direction: higher = stronger binding
Sequence | E-score
ACGCTACG | -0.0137
GAGCGTAA | 0.0845
ACCTTCTA | 0.14
CTACCAAC | 0.0381
ATTTGCAG | 0.183
TTCACAAA | 0.111
AGCATTCC | -0.0882

Series 4
Target: RING finger protein unkempt homolog, zinc fingers 1-6, GST-SBP tag (UNK, Homo sapiens, UniProt Q9C0B0, residues 30-357)
Chain of UniProt Q9C0B0 (30-357, looked up): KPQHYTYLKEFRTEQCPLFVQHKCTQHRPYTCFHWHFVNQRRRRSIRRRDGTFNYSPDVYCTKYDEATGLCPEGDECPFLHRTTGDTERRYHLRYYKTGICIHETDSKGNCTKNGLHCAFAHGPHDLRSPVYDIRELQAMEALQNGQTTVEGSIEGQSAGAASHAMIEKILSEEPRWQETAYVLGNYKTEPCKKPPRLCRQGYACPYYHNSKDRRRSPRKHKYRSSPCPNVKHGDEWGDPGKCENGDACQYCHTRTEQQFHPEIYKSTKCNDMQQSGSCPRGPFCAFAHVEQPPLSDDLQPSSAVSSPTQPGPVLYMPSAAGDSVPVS
Technique: RNA Bind-n-Seq
Molecule type: RNA
Sample: in vitro
Tested at: not given
Notes: RNA with constant flanks, human and mouse sites, ends assumed
Baseline: input RNA pool
Direction: higher = stronger binding
All sequences stand within: GGGAGUUCUACAGUCCGACGAUC … CAACAGAGGAUUGAGCAUCA
Sequence | bound/input enrichment [ratio]
AUCAUGGCUACAAACAGACCAGAUACACUGGAUCCUGCUUUGCUGCGCCCAGGAAGAUUAGAUAGAAAAAUACAUAUCGAUUUACCAAAUGAACAAGCAAGAUUAGAUAUAUUGAAAAUC | 13.6
AAUGAUCUCCUGUGCAACGUAGACGUCAGUGAUUUGUCUUUUCAUGAUUCCUUGGCUACUUUUGUUGCUAUCCUCAUCGCCCGUCAAUGUUUGCUCCUAGAAGACCUGAUUCGCUGUGCA | 0.198
UUAAUAUUGCUUCUCCUGCAUGGCAAAACUGCCUAUUCUGCUAUUUAAAAACCCUCAAUGACUUUAUUUUCUACUGCCGCCUUUUUCAUGUGCAACCAAAAUGAAAAUGUUUAAAUUAAC | 0.592
AAUGAAUAUGUUGGAUUCAGUAAUGCAACGUUUCAGUCUGAACGAGAAAGUGGAGAUCGAAAUUUUGCAAUAGGAUAUUACUUAAAAGAAAAGAAGUGUUUUCCAGAAGGCACAGACAUG | 1.52
CCAGAUGACCGGUCGCAGGGAGCAGCCAUUGGGGGGCGGCCAGGACUGCCUGGCCCAGAGCAUAGCCCUGGCACAGAAUCUCAGCCUUCGUCGCCUUCUCCAACCCCAUCACCACCCCCA | 0.224
UCCCCCCCUCCACCGCCUCCUCCAGAAGAUUAUGAAGAGGAGGAAGCAGCUGUGGUUGAGUACAGCGAUCCGUACGCUGAAGAGGACCCACCGUGGGCGCCAAGGGCUUACUUGGAAAAG | 0.209

Repeated from above (series 4):
Sequence | bound/input enrichment [ratio]
AAUGAAUAUGUUGGAUUCAGUAAUGCAACGUUUCAGUCUGAACGAGAAAGUGGAGAUCGAAAUUUUGCAAUAGGAUAUUACUUAAAAGAAAAGAAGUGUUUUCCAGAAGGCACAGACAUG | 1.52
CCAGAUGACCGGUCGCAGGGAGCAGCCAUUGGGGGGCGGCCAGGACUGCCUGGCCCAGAGCAUAGCCCUGGCACAGAAUCUCAGCCUUCGUCGCCUUCUCCAACCCCAUCACCACCCCCA | 0.224
